# Experimental data of several laboratories.
# Parts stem from different laboratories: compare values within a part only.

# Block 1
# Target: RNA binding protein fox-1 homolog 2, RRM domain, GST-SBP tag (RBFOX2, Homo sapiens, UniProt O43251-10, residues 100-194)
# Technique: RNA Bind-n-Seq
# Molecule type: RNA
# Matrix: in vitro
# Concentration: 365 nM
# Notes: natural RNA segment, single round, ends assumed
# Baseline: no-protein control
# Reading: higher = stronger binding
# Residues (chain): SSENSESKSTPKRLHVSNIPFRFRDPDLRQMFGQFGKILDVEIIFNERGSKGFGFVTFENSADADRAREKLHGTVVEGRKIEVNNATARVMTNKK
Strand,RBNS enrichment (R)
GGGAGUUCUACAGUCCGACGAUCUUUGUUAAGAUAGGGUUUGGAUUUAGUAUGAAGCUUUGGCUAAAACCCUUGGGUUUGCCUUAGAACACUGACACUAAGAACCUGGAAUGACAUGGGGAGGACAAAGAGAGUGGAAUUCUCGGGUGCCAA,0.386
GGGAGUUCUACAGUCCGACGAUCAAUGUUGCUUUCUCUUCUAGUCUCGGGUAUGUUUAAAUGAUUCCCUUUUCUCACUCUAGCGCCAAUACUGGCCUGAAGGCUAGAUCCCCAGCGAAAUUCUUGUUCAGGCUUGGAAUUCUCGGGUGCCAA,0.302
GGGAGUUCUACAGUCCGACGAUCCGCUGCCCUGUGACUCCGACCUGUAGACAGGGUUCACCUGAGCUCUGCCUGGAGUCUGAGGGUGACUUGAACUUCUGCCAGUACAUCUGCAACUAGAACCCUGGUCGCCUUGGAAUUCUCGGGUGCCAA,0.417
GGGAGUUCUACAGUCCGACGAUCAGCUCAACUACACAAUAUAAGGCAGACCAACCAAUACAUGCCUGUCAUUCACGUGUCCUUUCAUGUGCUUGCUUUAGGGAAACAGUCCUUCACAAGUCUGCCUUUCACCUUGGAAUUCUCGGGUGCCAA,0.336
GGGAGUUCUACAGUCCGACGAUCAAACGGUUUCCUUUUUGAGAUAUUUUAACAGAGAAGGGGUGGGGGAGAAGCAGAUGAAGCUGUACUACCCAGCCCUCUUCUUGUUUGUAUUUGUUUAGGGUUGUGAGGUUUGGAAUUCUCGGGUGCCAA,0.638
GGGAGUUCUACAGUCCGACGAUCCCGGAAGUUCAGGCCACCAGACGUAGUGAUUUGUAAGAAAUUACUGUCUCCUCAGUGAACCUCCUAGUUUCUUUAUAGACUUAACCUUCCCUUCAGUUAAAGGGUUUCUUUGGAAUUCUCGGGUGCCAA,0.227
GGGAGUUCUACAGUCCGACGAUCUCUCUUGUGAGGUAUCUUCAUUUAUGCACUGUCCAAAAAUAGCCAUGUGUAAGAGUCUUUCUGUAUGACGAACUACAUGGAAAAGACUUCUGUGGACAUAAUUCUGACCGUGGAAUUCUCGGGUGCCAA,0.432
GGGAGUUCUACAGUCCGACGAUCAGAGGGUCAGACGCCUGAGGAACCCUUACAGUAGGAGCCCAGCUCUGAAACCAGUGUUAGGGAAGGGCCUGCCACAGCCUCCCCUGCCAGGGCAGGGCCCCAGGCAUUGCUGGAAUUCUCGGGUGCCAA,0.804
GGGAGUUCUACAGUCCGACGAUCUGUUAGCUGCAUAAGCUCAAUAAAAAGUUGGUCUGGGCAUUGCAUCCCCUCUGACAGACCGAUAGCUGCAUCAGGCUGUUGGGUGGAAUGGGAGGCAAGGGAAUAGGAAAUGGAAUUCUCGGGUGCCAA,0.422

# Block 2
# Target: Phosphate system positive regulatory protein PHO4, full length, GST-tagged (PHO4, Saccharomyces cerevisiae, UniProt P07270, residues 1-312)
# Technique: competition protein-binding microarray
# Molecule type: double-stranded DNA, one strand shown
# Matrix: in vitro
# Concentration: 2 µM
# Notes: whole 60-bp probe, lowest competitor level
# Added: Cbf1 competitor, 0.05 µM
# Reading: higher = stronger binding
# Construct (chain): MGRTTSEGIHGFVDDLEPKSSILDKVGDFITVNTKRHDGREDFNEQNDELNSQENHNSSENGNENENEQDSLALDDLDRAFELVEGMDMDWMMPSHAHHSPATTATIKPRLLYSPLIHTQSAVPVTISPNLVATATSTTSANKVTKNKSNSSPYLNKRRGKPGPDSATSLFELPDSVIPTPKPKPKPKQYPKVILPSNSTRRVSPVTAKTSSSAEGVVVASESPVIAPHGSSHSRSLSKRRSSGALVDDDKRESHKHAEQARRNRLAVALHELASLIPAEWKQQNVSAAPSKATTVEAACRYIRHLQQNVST
Strand,fluorescence intensity
ATAAGAAGTGTTTGGAACGTGCAAATCTTTCATAACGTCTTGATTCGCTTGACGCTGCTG,13100 a.u.
AAGGCAACTTCCCTACACGTTGAAGTGCCAATTTTTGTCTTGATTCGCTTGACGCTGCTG,9170 a.u.
GTCTTGTCTCATTGGGGGGTGGGTGTCCCCACTTCAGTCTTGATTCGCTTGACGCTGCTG,5340 a.u.
GTCTTGTCTCATTGGTCAGTGGGTGTCCCCACTTCAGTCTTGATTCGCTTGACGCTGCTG,5060 a.u.
GACTCACCCACTCAGGACATGATGTCAGTAGCGGGTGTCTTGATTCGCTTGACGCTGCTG,6060 a.u.
AGGCATACCCTTGTTCATGTGGGGGCATTCAATGGGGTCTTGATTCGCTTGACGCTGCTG,7200 a.u.
CAATCTTTGTCTAGCTTCGTGCTTTTTGGCAAAAGCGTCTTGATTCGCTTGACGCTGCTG,5750 a.u.
TGCGCAACAACTTGAGCGGTGGGTGTATGTCTAGAAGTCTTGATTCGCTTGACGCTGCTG,4200 a.u.
CTGTTCTGTTCATCGCATGTGCATATATATATATAGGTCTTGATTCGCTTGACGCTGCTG,10400 a.u.
TTTGTGTGCTACCTGCTCGTGACGGCGGTCTTTTTGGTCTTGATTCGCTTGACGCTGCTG,6750 a.u.
CTTTCCCGATCTTGAAAGGTGGGTGTAGCACATTTGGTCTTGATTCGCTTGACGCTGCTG,4260 a.u.
TGCGCAACAACTTTTCACGTGGGATTATGTCTAGAAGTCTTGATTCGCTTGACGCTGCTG,12200 a.u.
CTCTAATCCCACTACCACATGCCATACTCACCTTCAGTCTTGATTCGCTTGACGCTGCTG,12100 a.u.
CTACAATTTCCACTCCACGTGAATTTTTTCTCGGAAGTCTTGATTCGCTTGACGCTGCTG,14200 a.u.
GTCTTGTCTCATTGGGGAGTGGGTGTCCCCACTTCAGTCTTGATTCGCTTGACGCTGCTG,5160 a.u.
ATGGACACTTTAAAGCACGTTTTGCTTGAAGAGACAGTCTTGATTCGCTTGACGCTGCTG,14600 a.u.
CGGGGTTAAGTTTGCAGCGTGGGTGGCTTGCAGCAGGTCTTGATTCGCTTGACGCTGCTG,9410 a.u.
CAAGGCTCTTCAAACCATGTGACAGTAAACTTCGCAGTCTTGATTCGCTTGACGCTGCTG,7560 a.u.
TTAAGTCTATGCCAGCACATGTGGTGCTCAGTGCTGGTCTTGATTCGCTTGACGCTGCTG,11300 a.u.
ATCCTTTTGAATCGGCACGTGAATATACTAAAGCTTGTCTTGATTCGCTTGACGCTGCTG,16300 a.u.
CATACCCAACCTTTTCACGTGTTTTAAGATATTTGTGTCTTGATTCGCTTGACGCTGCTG,15700 a.u.
GTCTTGTCTCATTTTCACGTGCAATTCCCCACTTCAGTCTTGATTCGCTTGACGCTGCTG,13400 a.u.
AAGCGCCAAGTACAGAACGTGACGGTAAGAAAGAATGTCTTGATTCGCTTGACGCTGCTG,12700 a.u.
TACTGCGCCGGGTGATGCGTGACGGGTTTTTGGAAAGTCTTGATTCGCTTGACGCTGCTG,7340 a.u.
CAAGATTGCCATTTGCACGGGTAGCGCAAGTGAGAAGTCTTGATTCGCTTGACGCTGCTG,6870 a.u.

# Block 3
# Target: Hepatocyte nuclear factor 3-alpha (Foxa1, Mus musculus, UniProt P35582, residues 1-468, full length assumed)
# Technique: EMSA with sequencing
# Molecule type: double-stranded DNA, one strand shown
# Matrix: in vitro
# Concentration: 10 and 20 nM
# Notes: whole designed probe, mean of two concentrations, ends assumed
# Baseline: negative control set to 0
# Reading: higher = stronger binding
# Residues (chain): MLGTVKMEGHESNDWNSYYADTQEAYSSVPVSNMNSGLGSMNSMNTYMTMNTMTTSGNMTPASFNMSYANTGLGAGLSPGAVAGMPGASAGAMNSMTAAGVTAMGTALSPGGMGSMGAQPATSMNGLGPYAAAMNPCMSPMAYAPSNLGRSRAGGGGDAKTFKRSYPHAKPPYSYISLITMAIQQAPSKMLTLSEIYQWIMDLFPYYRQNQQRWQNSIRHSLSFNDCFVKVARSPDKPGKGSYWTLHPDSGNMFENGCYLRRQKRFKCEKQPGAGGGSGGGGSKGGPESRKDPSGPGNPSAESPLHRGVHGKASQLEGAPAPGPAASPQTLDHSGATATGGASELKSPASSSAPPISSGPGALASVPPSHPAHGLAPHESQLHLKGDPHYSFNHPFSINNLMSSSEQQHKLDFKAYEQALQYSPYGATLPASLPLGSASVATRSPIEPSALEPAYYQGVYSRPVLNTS
Strand,normalised bound fraction
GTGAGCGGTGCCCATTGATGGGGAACCTTCCAAAGGTCAAGTTGATACTGCATGACCTAAGGCCCCCGCCATAAATTGCGTTGTTTGCATAGATGACCTGGCACAACCCAAAGCCTTAGGTAAATAAAGACACTCTTAGAAAACAGGGTATTCCAAAGGCTCAGGGATTATCTTTCAGGAGATGGGCAGGGCCCAGTTGGGTTTTTTTTTTTTTTTTTTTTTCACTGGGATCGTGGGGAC,0.504 ratio
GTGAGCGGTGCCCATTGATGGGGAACATCTTCCCCCTCTTCCTTGCCCCACCAGCTCACCTTCCCGGGTTGTTTACTTTGAGCAAAGTAAACAAAGCCGGCATTCGTTAACCCTCTTCACGCGCATACTGCTGTTTACTTTGGATCTAACATGGTCCTTTGGCGACGCCAGGCTCCGGGAGAGCAAAGCACCGTGTCAGGGCCATGATCCGGGGTGGCCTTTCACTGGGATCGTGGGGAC,0.544 ratio
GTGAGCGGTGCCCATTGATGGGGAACGGCAGCACTTAGCAGCAGCTACAAATAACAATGGAAAGGTTGGAGAACCCATCACATGCCAGACACAGGGCTAAGTGTGCAGATACCGATTTGTGTTTACTTTTGCTCTGTAGAAGAATCAGGAGGATGAGGTCTATTTGGTTTTTACTTTTCCCATCGAGTTATCTCCCACTCTGAGACTGAAGCTGGACTTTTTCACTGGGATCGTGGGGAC,0.436 ratio
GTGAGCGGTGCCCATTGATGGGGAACAGCAAGGCTTTAAAAGTGAGGTCTTTCAGTTTAGATGCAAAAAGGGTGGTTCTGTTGAGTCAACCCAGCTATTTCACTAGTTTCGTAATCATAGTAAACACCTAGAATGAGGTAGCTGGAGTGCAAATCTAAATGGCTTGTGACAGTTAAGGAAGTACATAGGCAACAGTTACTGGTTTTCTTGATGCAGCTGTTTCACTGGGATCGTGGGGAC,-0.0256 ratio
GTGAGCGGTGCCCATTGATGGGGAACATCTTCCCCCTCTTCCTTGCCCCACCAGCTCACCTTCCCGGGTTATTTGCACAAAGGAAAATAAATAAAGCCGGCATTCGTTAACGCAGTTCTGGCGCAAACTGCTGTTTGCTCTGGATGAATCATGGTCCTTTGGCGAGGCGTGGCTCCGGGAGAGCAAAGCACCGTGTCAGGGCCATGATCCGGGCTCGCCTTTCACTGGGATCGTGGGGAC,0.374 ratio
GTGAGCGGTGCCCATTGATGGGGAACGCTTTAAATATCAAGCCTAAGCTAATGTAAGCAAAGGATATTGTTAGTAGTAGCAAATTAGTATTAGTAGTAGCAAATTAATTAATTCAGTGATGTTTACTAAATATCCTCAATTATGTTATTTGTTAATTTGAAGTTTCTGTAAGAAAGAGAATACATGAACTTGAATTTCACAAATACCTGTGAATTGCACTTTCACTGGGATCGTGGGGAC,0.201 ratio

# Block 4
# Target: Histone acetyltransferase KAT6A, winged helix 1, GST fusion (KAT6A, Homo sapiens, UniProt Q92794, residues 1-85)
# Technique: protein binding microarray
# Molecule type: double-stranded DNA, one strand shown
# Matrix: in vitro
# Concentration: not given
# Notes: 8-mer, flanks averaged, mean of 2 arrays, mostly near background
# Baseline: not given
# Reading: higher = stronger binding
# Residues (chain): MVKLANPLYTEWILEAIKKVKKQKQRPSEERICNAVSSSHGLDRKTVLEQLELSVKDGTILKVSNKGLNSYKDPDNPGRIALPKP
Strand,E-score
ACAACTAC,-0.0775
CAACCGAC,0.0338
ATGACGAC,-0.0343
CGAGTGCA,-0.104
GTTCTATA,-0.0153
GTTCAGGA,-0.154
ACGTTCAA,-0.1
CACGCCCC,0.0842
CACTTATC,-0.266
AAGTCCAA,-0.161
CTGGTGAA,-0.0958
AGCCATGG,-0.127
AACGTAAC,-0.0901
ACTGTGAA,-0.0601
CGCCGCCC,0.411
AACGTTAA,0.112
GGGGAGTA,0.00332
CCAGCTAG,-0.3
AATCAGGC,-0.124
CAGCCGTC,0.251
ACCCTAGA,-0.19
GCTATAAC,0.0625
